Experimental data collected from several papers.
Each numbered part is a random draw from the data of one study; scales do not carry over between parts.

Sample 1
Target: Interferon regulatory factor 3, full length, phosphomimetic (IRF3, Homo sapiens, UniProt Q14653, residues 1-427, S386D/S396D/S398D/S402D/T404D/S405D)
Technique: protein-binding microarray
Molecule type: double-stranded DNA, one strand shown
Sample: in vitro
Tested at: 2540 nM top
Setting: 60-bp whole probe
With: salmon DNA 0.4 mg/ml
Reference: random background probes
Direction: higher = stronger binding
Quantity: fitted relative affinity
All sequences stand within: GCCTAGCAC … GTCTTGATTCGCTTGACGCTGCTG
Construct (chain): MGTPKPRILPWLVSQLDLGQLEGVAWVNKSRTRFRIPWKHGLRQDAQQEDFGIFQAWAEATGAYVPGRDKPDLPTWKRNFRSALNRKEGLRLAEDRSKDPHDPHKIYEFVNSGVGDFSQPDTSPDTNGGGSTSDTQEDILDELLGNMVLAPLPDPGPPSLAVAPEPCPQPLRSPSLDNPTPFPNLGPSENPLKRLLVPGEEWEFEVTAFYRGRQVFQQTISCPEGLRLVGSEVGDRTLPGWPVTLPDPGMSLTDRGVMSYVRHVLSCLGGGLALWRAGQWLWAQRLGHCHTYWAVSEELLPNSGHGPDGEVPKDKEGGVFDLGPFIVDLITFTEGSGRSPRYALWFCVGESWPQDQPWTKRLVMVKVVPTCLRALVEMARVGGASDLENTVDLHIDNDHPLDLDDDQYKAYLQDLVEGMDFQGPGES
GACGATTTCAGTTCCGAAACGTGCTAG: 4 z-score
TTAGGTTGCCTACTGCTTTAGTGCTAG: 1.81 z-score
GACGTACTGAGTTTCGAGACGTGCTAG: 1.18 z-score
CTTCCACTTAGGGTGGCTGGGTGCTAG: 0.976 z-score
TGCTCTCCGGGGTCTGTGAGGGTGCTA: -0.676 z-score
TTAGACATCGGGTTTCGATTAGTGCTA: 1.42 z-score
TCATTTTCATGCTCTTATACTGTGCTA: 2.04 z-score
TTAGGTATCGACTAACGGTTAGTGCTA: 0.155 z-score
ACCACTCCAGTTCTGGGAAAGTGCTAG: 0.495 z-score
GACGGACTTGGTCTCGGGACGTGCTAG: -0.416 z-score
GACTATATCAGACTGGAGACGTGCTAG: 0.216 z-score
GACGGTATACTACTGCTGACGTGCTAG: -0.013 z-score
TCAGTGATCAGTCTGATACTGTGCTAG: -0.0972 z-score
GACGGTATCGGACTGGAGACGTGCTAG: 1.47 z-score
TTAGATTTCAGGTTTCGATTAGTGCTA: 3.02 z-score
TTAGATATCAGACTCGATTAGTGCTAG: 0.911 z-score
GACGATATCGGATTTCGAGACGTGCTA: 1.22 z-score
TTAGATATCAGTATCGAGTAGTGCTAG: 1.02 z-score
CTAGGTTTCCTTCTCCTTTAGTGCTAG: 10.6 z-score

Sample 2
Target: PABPC1L2, full length, GST fusion (mouse, UniProt A0ABA7IW68)
Technique: RNAcompete
Molecule type: RNA
Sample: in vitro
Tested at: 20 nM
Setting: 7-mer, probes averaged, single round
Reference: mean of 7-mers
Direction: higher = stronger binding
Quantity: 7-mer Z-score
Construct (chain): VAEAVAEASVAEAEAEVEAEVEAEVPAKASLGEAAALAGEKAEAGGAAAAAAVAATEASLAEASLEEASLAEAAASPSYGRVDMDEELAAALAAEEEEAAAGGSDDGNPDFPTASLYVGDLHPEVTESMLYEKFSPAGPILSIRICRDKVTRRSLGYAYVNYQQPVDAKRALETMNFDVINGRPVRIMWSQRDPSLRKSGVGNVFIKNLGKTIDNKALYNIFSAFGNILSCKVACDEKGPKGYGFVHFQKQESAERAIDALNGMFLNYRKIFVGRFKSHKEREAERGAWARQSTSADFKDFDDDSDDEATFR
AGUGAAU: -0.0518
CAGACUC: -0.141
UGAGCCG: -0.264
AGCAAUU: -0.00652
GUUGUCC: -0.405
AAACACU: 1.64
AGAAGAC: 0.133
UCCUAGU: -0.402
GAGGUUU: -0.369
CGUCCUU: -0.461
CGUCGCU: -0.512
CACUGGA: -0.0101
CUUACGC: -0.449
UGAUUCA: -0.157
UUUCCUU: -0.394
GCGGAUC: -0.0047
AAAUUGC: 1.9
GAGCGAG: 0.131
CCCGGUC: -0.293
GAGCUCC: -0.387
AAGCCAG: 0.0497
CGGGUAG: 0.0732
UCCUAUU: -0.418
GUGAGGA: -0.0627
UCGUGAG: -0.425

Sample 3
Target: Histone acetyltransferase KAT6A, both winged helices, GST fusion (KAT6A, Homo sapiens, UniProt Q92794, residues 1-181)
Technique: protein binding microarray
Molecule type: double-stranded DNA, one strand shown
Sample: in vitro
Tested at: not given
Setting: 8-mer, flanks averaged, mean of 2 arrays, mostly near background
Reference: not given
Direction: higher = stronger binding
Quantity: E-score
Residues (chain): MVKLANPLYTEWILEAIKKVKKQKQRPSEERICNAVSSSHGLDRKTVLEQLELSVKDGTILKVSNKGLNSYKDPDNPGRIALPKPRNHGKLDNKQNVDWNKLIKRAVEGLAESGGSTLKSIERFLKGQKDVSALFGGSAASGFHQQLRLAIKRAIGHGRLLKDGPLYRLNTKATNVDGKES
TAGATCCA: -0.171
TCAACCCA: -0.202
AGACCGGA: 0.0633
GAGGTCGC: 0.117
ACTTCCTC: -0.194
CTCAGCAC: -0.161
AGTGCCTA: -0.211
GAACCCTC: -0.094
ATGCCAAG: -0.334
TTAGTAAA: -0.0333
GTCTAGTA: -0.0969
AGATATCC: -0.0641
CCAAGACC: -0.147
CTACAAAG: -0.165
AGAAGAGC: -0.0225
CATCGAAG: 0.0796
AACAAATG: -0.00321
GCTCGGAA: 0.123
CACCTAGC: -0.0668
TGAACTCA: -0.199
CGTAAGGA: -0.0927
CCAAAGAA: -0.162
CAGAGGCG: 0.0352

Sample 4
Target: RNA binding protein fox-1 homolog 2, RRM domain, GST-SBP tag (RBFOX2, Homo sapiens, UniProt O43251-10, residues 100-194)
Technique: RNA Bind-n-Seq
Molecule type: RNA
Sample: in vitro
Tested at: 365 nM
Setting: natural RNA segment, single round, ends assumed
Reference: no-protein control
Direction: higher = stronger binding
Quantity: RBNS enrichment (R)
All sequences stand within: GGGAGUUCUACAGUCCGACGAUC … UGGAAUUCUCGGGUGCCAA
Construct (chain): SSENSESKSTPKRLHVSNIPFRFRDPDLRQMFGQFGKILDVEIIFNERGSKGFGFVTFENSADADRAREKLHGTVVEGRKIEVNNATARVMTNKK
UUUGUUUUUGUUUUUUAAGGGAAACGAAAUGGAAUUCGAAGGGACCUUUUCACUAACCCCACUUCUGUGUGUUCUGCAUGGCGCCUGCCCCAGGGCAUCUGCCAACUCCA: 0.548
AAGUAAAUAAGUAUCCUUGCCAAGUGAUCAUGAGUGUCAUUUUUGUUCUAAGACUAAUAUUUUUAGAUCUUUUUACUUCACCUCAUACUUAUCACCAAUGUAUAUCUCCA: 0.343
ACGGGAGGAAAAGGCAUUUCCAGCCCAGAACAAGGUCUAAUGCCAAUAAAUGGGAGGAAUGGGUGUAGAGUUGAUGCAGCCAAGAAUGUCCGUCCUCUGGGCGGCACAAG: 0.413
ACAUUGUGGUCUGAAGCUCAGGCCACAGUGCCUGCCUCGUUCCCUCAGCCUCCCUCCCAGGGCUCCAGAGCUCAGCUCUUCCUUUUCUAGAAGCAUGUGAAGAUGCCCAA: 0.579
CAUAUCCUUGCCCUUGAGUGCUUGUUAGAGAGAAAGAGAACUACUAAGGAAAAUAAUAUUAUUUAAACUCGCUCCUAGUGUUUCUUUGUGGUCUGUGUCACCGUAUCUCA: 2.16
CUAGCCCCUCCUCCCCGCGAGACUCUCAGGCUGAGGUCGGCAAGCCGUGGCUCCCCCACACACCGUGCAAUACCCUGUCUGACCUGGGCUCUUCCCGCCUGCAUCCCUCC: 0.644
GGCCUGAGAAUCCAGCUCACCUCCUCUGCCCACAGUCUGGACUGCUUGUGGGAAGGCCAUCUCCUCCUGUCUGGUGGUACCUCCACUCUGGGCAGGGAGGGCCUGUCUGU: 0.413
CCUAUCUCAGCGGAAUUCUAAAUCUCAGUUCUGGCUUAAAAGUUUUAAAAAUAAGAUAUAUAUACAUAUAUAUAUCCAAUACAAUGAACUUUGAAGAUUUCUCAGAAAAC: 0.463
CUGAACAUUUCCUAUAAAUGGAAUCAGACAUGGUCUUUUGUGUCUGGCUUCUUUCACUCAGUAAUGUUUCUGAAGUUCCUCCCUGUAGUGGCAUCUAUCAGUAAUUGCUU: 0.278
UUAACAGACUUGCUGUGUAGCAGUUUUUUUCUGGUGGAGUUGCUGUAAGUCUUGUAAGUCUAAUGUGGCUAUCCUACUCUUUUGGGCAAUGCAUGUAUUAUGCAUUGGAA: 0.499
CUCACCCUGACAUAUGCCCACAUCCAUGCUGGGGCCUGGGUUCAGCCUGGCCUGCCCAGCCCUGGUCAUCCAGCUGUACUGGCCCCUGGGGGGCCCCUUUGGGAGCAGGC: 0.452
AUUCUUAUUCUUUUAUAAUUAUGCGUGGAAGAAGUAGACACAUUAAACGAUUCCAGUUGGAAACAUGCACCUGCCUGAGGUUCCUUCUAAGUCCUGGGGCUCCUGAGUGG: 2.14

Sample 5
Target: RING finger protein unkempt homolog, zinc fingers 1-6, GST-SBP tag (UNK, Homo sapiens, UniProt Q9C0B0, residues 30-357)
Technique: RNA Bind-n-Seq
Molecule type: RNA
Sample: in vitro
Tested at: not given
Setting: RNA with constant flanks, human and mouse sites, ends assumed
Reference: input RNA pool
Direction: higher = stronger binding
Quantity: bound/input enrichment
All sequences stand within: GGGAGUUCUACAGUCCGACGAUC … CAACAGAGGAUUGAGCAUCA
Construct (chain): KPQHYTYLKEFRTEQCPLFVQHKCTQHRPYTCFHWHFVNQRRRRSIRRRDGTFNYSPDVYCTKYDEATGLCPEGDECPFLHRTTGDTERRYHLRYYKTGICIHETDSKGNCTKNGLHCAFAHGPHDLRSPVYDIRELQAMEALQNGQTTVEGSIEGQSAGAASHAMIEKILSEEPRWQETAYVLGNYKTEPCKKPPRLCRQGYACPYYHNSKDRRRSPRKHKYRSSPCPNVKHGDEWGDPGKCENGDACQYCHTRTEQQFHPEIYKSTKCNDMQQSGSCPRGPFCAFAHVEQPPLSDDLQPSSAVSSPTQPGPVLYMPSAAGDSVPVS
GACAUGCUGUAUACCGAGACAGAUUUGGAAGAAAGCAUGGACAAAAUUGAAACUAUCAACUUUCAUGAAGUUAAGGAAGUUGCGGGAAUCAAGUUUUGGUGUUACCAUGCAGGUCACGUC: 0.174 ratio
GAGAAGUCGACUCAUGAGAAAAUCCUAGAGAAGGCAAUGAAGAAGAAGGGGGGAAGUAAUUGUCUCGAAAUGAAAAAAGAAACAGAAAUCAAAAUUCAGACGCUGACAUCAGAUCACAAA: 0.436 ratio
GCAGGUGUCAAUAGUGAUAGCCCUAAUAACUGUUCAGGAAAAAAGGUAGAACCUUCAGCUUUAGCUUGCCGAUCACAGAAUUUAAAGGAAUCUUCAGUAAAAGUAGAUAAUGAAAGCUGU: 0.891 ratio
GUGAUGUCAAAGAGAACUAUCUUGAAACAUUUAUUUCCAGUCCAAAAUGGAGCUUUAUAUUGUGUUUGUCAUAAAUCUACGUAUUCUCCUCUACCAGAUGACUAUAAUUGCAACGUAGAG: 0.401 ratio
UGCUGAGGAGGCGGAUUAGGGGGGCGCGGAGUCUCUUCCCUUGAGUGCAUAGGUCCCGGUUGGUAGAGGGUUUGAGUCCGCAUCGCCACAGCUGAAGGCUGCGAGGGACUAAGAGCAGAA: 0.0747 ratio
AGCCAGCCCCUGAGGCUACUAGAAGCUGUGCUUCAGGAGUGCCACAACACCUUCACCGCCUGCUUUCACUCCUUCUACCCAACGCCGGCACUACAGUGGGCAUGCCUCUGUGAUCUGCUC: 0.238 ratio
CGAAAGUCACCUGAAAUUUCUGAACGAAUUGUACAGUGGCCUGCAAUAACGUACAAACCUCUGUUGGACAAAGCUGGUUUGGGAUCCAUAACUUCUGUUCGCUUUCUGGGAGAUCAACAA: 0.195 ratio
AUGCACUUUCCAUAUUUUCAAGUCAAUUUUAACUAAAAACUAAGAUAAUGUUUCCUAGUAGAGUUGCUUGAAGAUUAGACUAGACAGGGUUGAUUUAUUAUUAGCAUGUCAUUUGUACAU: 0.813 ratio
CUUGCAUUUCUUUUCCUAAAUCUUAUUUAGGCUAAAUCAGUUUUAUUUUUCUCUGAUUUUUUUUAAUACCACAGAAUCACCUGAGUGUCAAUUGAAAGUUGUCAAUUAAAAGGUAACCUU: 0.558 ratio
CAGUUAAAGUAUCAGAGGAUCUUGGAGCGCCUGGAAAAGGAGAACAAAGAGCUGCGGAAGCUGGUGCUGCAGAAGGACGACAAAGGCAUCCACCACAGGAAGCUCAAGAAAUCUUUGAUU: 0.192 ratio
UGUUGUAAAUCAGACUCCAGCAAUUUUUGUUGUAUGAUUUUGGUUUUUGUAAAGUGUAAUUGUCCUUGUACAAAGUGCUCAUAUUUAAUUAUGAACUGCUUUAAAAUCACUAUCAGUGAA: 0.102 ratio

Repeated from above (sample 3):
GAACCCTC: -0.094
CATCGAAG: 0.0796
ATGCCAAG: -0.334
TGAACTCA: -0.199
AGACCGGA: 0.0633
GCTCGGAA: 0.123
GTCTAGTA: -0.0969
CGTAAGGA: -0.0927
AGAAGAGC: -0.0225
AGTGCCTA: -0.211
